Measurements of several laboratories.
Lines come from different studies, so protocols differ. ± gives the spread as reported.
Cell line: RAW264.7

NNc1ncc(S(=O)(=O)NC(=S)Nc2ccccc2)c(=O)[nH]1 — mRNA level (qPCR, item: CRP; concentration not given, compound at quarter of IC50, added: LPS 1 µg/mL; baseline: LPS control): 0.207 ± 0.021 fold change
O=C(/C=C/CCl)O[C@@H]1COC(=O)C1 — IC50 (NO release, inhibitor; LPS-stimulated): 4 µM
Cc1ccc(NC(=S)NS(=O)(=O)c2cnc(N/N=C/c3ccccc3)[nH]c2=O)cc1 — mRNA level (qPCR, item: IL-6; concentration not given, compound at quarter of IC50, added: LPS 1 µg/mL; baseline: LPS control): 0.171 ± 0.007 fold change
C/C=C/C(=O)O — FLAG-AF9 occupancy fold change (ChIP-seq; 10 mM, added: LPS; baseline: responsive over unresponsive genes): 1.58 fold
COC1=C[C@@H]2[C@@H]3Cc4ccc(OC)c(O)c4[C@]2(CCN3C)CC1=O — IC50 (NO release, inhibitor, Griess; LPS-stimulated): 70.9 µM
COC(=O)[C@@H](N)CCCNC(N)=N[N+](=O)[O-] — IC50 (NO release, inhibitor, Griess; LPS-stimulated): 36.8 µM
CNC(=N)NCCC[C@H](N)C(=O)O — IC50 (NO release, inhibitor, Griess; LPS-stimulated): 22.1 µM
O=C1C[C@H](O)CO1 — IC50 (NO production; added: LPS): 21 ± 10.8 µM

Repeated from above:
O=C1C[C@H](O)CO1 — IC50 (NO production; added: LPS): 21 ± 10.8 µM
